Assay results from different studies.
Numbers after ± are the reported error. Values after ≈ are worked out from the molar mass of the structure shown.

O=[N+]([O-])c1ccc(/C=N/N=C/c2ccc([N+](=O)[O-])s2)cc1
IC50 (Trypanosoma evansi; parasite growth, CellTiter-Glo; Tansui bloodstream form; 72 h): 1.41 ± 0.2 µM

CC(C)C[C@@H]1NC(=O)[C@H](CCCCN)NC(=O)[C@H](C(C)C)NC(=O)[C@@H]2CCCN2C(=O)[C@@H](Cc2ccc(O)cc2)NC(=O)[C@H](CC(C)C)NC(=O)[C@H](CCCCN)NC(=O)[C@H](C(C)C)NC(=O)[C@H](CCCCN)NC(=O)[C@H](CC(C)C)NC(=O)[C@@H]2CCCN2C(=O)[C@@H](Cc2ccc(O)cc2)NC(=O)[C@H](CCCCN)NC1=O
MIC geometric mean (Gram-positive bacteria; 24 h, 7 strains): 1.2 µg/mL

Fc1ccc2c(c1)c1nc3ccc(Br)cc3c-1cn2Cc1cn(-c2ccccc2I)nn1
fold change (Giardia duodenalis; UHPLC-Q-TOF-MS, item: 19-oxo-eicosanoic acid; trophozoites; IC50, m/z 344.3, retention 11.66 min; reference: 0.25% DMSO): 3.17

C=C(C)[C@@H]1CC[C@]2(C(=O)n3ccnc3)CC[C@]3(C)[C@H](CC[C@@H]4[C@@]5(C)CCCNC(C)(C)[C@@H]5CC[C@]43C)[C@@H]12
EC90 (Human alphaherpesvirus 1; cytopathic effect; HFF, E-377): > 6 µM

CC[C@@H](C)[C@@H](NC(=O)[C@@H](C)NC(=O)[C@@H](CCCCN)NC(=O)[C@@H](CC(C)C)NC(=O)[C@@H](C)NC(=O)[C@H](NC(=O)[C@@H](Cc1c[nH]cn1)NC(=O)[C@@H](CC(C)C)NC(=O)[C@H](NC(=O)[C@H](NC(=O)[C@@H](CCCCN)NC(=O)[C@H](NC(=O)[C@@H](C)NC(=O)[C@@H](CO)NC(=O)[C@@H](CCCCN)NC(=O)[C@@H](Cc1ccccc1)NC(=O)[C@H](NC(=O)[C@@H](CCCCN)NC(=O)[C@@H](CC(C)C)NC(=O)[C@@H](Cc1ccccc1)NC(=O)[C@@H](CO)NC(=O)[C@@H](CCCCN)NC(=O)[C@@H](Cc1c[nH]c2ccccc12)NC(=O)[C@@H](CCCCN)NC(C)=O)[C@H](C)O)C(C)C)[C@H](C)O)C(C)C)[C@H](C)O)C(=O)N[C@H](CO)C(=O)N[C@H](CO)C(N)=O
MIC geometric mean (Acinetobacter baumannii; 11 isolates; 24 h, 37 °C): 0.7 µM

O=[N+]([O-])c1ccc(/C=N/N=C/c2ccc([N+](=O)[O-])o2)cc1
IC50 (Trypanosoma brucei gambiense; parasite growth, CellTiter-Glo; IL1922 bloodstream form; 72 h): 1.5 ± 0.28 µM

CC(C)C[C@@H]1NC(=O)[C@H](CCCCN)NC(=O)[C@H](C(C)C)NC(=O)[C@@H]2CCCN2C(=O)[C@@H](Cc2ccc(O)cc2)NC(=O)[C@H](CC(C)C)NC(=O)[C@H](CCCCN)NC(=O)[C@H](C(C)C)NC(=O)[C@@H]2CCCN2C(=O)[C@@H](Cc2ccc(O)cc2)NC(=O)[C@H](CCCCN)NC1=O
MIC geometric mean (Gram-positive bacteria; 24 h, 7 strains): 7.2 µg/mL

O=C(Nc1ccccc1Nc1ccccc1)c1cccnc1C(F)(F)F
inhibition (Botrytis cinerea; microbial growth; 50 µg/mL): 33.8%

C=C(C)[C@@H]1CC[C@]2(CO)CC[C@]3(C)[C@H](CC[C@@H]4[C@@]5(C)CCCNC(C)(C)[C@@H]5CC[C@]43C)[C@@H]12
EC90 (Human alphaherpesvirus 1; cytopathic effect; HFF, E-377): > 6 µM

O=c1[nH]cc(C(c2cccc(Cl)c2)c2c[nH]c(=O)[nH]c2=O)c(=O)[nH]1
inhibition (Human immunodeficiency virus 1; viral replication, inhibitor, ELISA; 1 µg/mL): 58%

CSc1cccc(O)c(=O)c1O
EC50 (Hepatitis B virus; viral replication, inhibitor; HepDES19): 14.3 µM

CN[C@H](CC(C)C)C(=O)N[C@H]1C(=O)N[C@@H](CC(N)=O)C(=O)N[C@H]2C(=O)N[C@H]3C(=O)N[C@H](C(=O)N[C@H](C(=O)O)c4cc(O)cc(O)c4-c4cc3ccc4O)[C@H](O)c3ccc(c(Cl)c3)Oc3cc2cc(c3O[C@@H]2O[C@H](CO)[C@@H](O)[C@H](O)[C@H]2O[C@H]2C[C@](C)(NCc3ccc(C(=O)OCCCCCCN(Cc4ccccn4)Cc4ccccn4)cc3)[C@H](O)[C@H](C)O2)Oc2ccc(cc2Cl)[C@H]1O
regulation factor (Bacillus subtilis; protein synthesis, item: LiaH.1; 168; concentration not given, 10 min, at peak effective concentration; reference: untreated): 67.3 ± 35.2

O=[N+]([O-])c1ccc(/C=N/N=C/c2ccc(OCc3ccccc3)cc2)o1
IC50 (Trypanosoma brucei gambiense; parasite growth, CellTiter-Glo; IL1922 bloodstream form; 72 h): 0.46 ± 0.07 µM

Brc1ccc(-c2c[nH]c(-c3ccccn3)n2)cc1
worm killing (Schistosoma mansoni; female worms; 10 µM): 0%

NC(CNC(CNC(CC(=O)O)C(=O)O)C(=O)O)C(=O)O (stereo not shown)
isolates with restored meropenem susceptibility (Enterobacteriaceae, Acinetobacter, Pseudomonas; inhibitor; NDM-positive clinical isolates; 8 µg/mL, together with: meropenem 2 µg/mL): 88%

CC(C)S(=O)(=O)c1ccc(S(=O)(=O)C(C)C)c(O)c(=O)c1O
MIC80 (Cryptococcus neoformans; microbial growth, broth dilution; 13 h): 100 µM (≈ 35 µg/mL)

c1ccc(-c2nc(-c3ccc4ccccc4c3)c[nH]2)cc1
worm killing (Schistosoma mansoni; female worms; 5 µM): 0%

CC(C)C[C@@H]1NC(=O)[C@H](CCCCN)NC(=O)[C@H](C(C)C)NC(=O)[C@@H]2CCCN2C(=O)[C@@H](Cc2ccc(O)cc2)NC(=O)[C@H](CC(C)C)NC(=O)[C@H](CCCCN)NC(=O)[C@H](C(C)C)NC(=O)[C@H](CCCCN)NC(=O)[C@H](CC(C)C)NC(=O)[C@H](CCCCN)NC(=O)[C@@H]2CCCN2C(=O)[C@@H](Cc2ccc(O)cc2)NC(=O)[C@H](CCCCN)NC(=O)[C@H](C(C)C)NC(=O)[C@H](CCCCN)NC1=O
MIC geometric mean (Gram-positive bacteria; 24 h, 7 strains): 1.8 µg/mL

Cc1cc(N2CC[C@@](C#N)(C3(C)CC3)C2=O)cc(C(=O)NCc2cc(F)cc(-c3cnn(C)c3)c2)n1
gamete formation inhibition (Plasmodium falciparum; NF54, stage V gametocytes; 1 µM): inactive

CCCCCCS(=O)(=O)c1ccc(S(=O)(=O)CCCCCC)c(O)c(=O)c1O
MIC80 (Cryptococcus neoformans; microbial growth, broth dilution; 13 h): 50 µM (≈ 21.7 µg/mL)

CC1(C)S[C@@H]2[C@H](NC(=O)[C@H](NC(=O)C3=C(O)C(c4ccccc4F)NC3=O)c3ccccc3)C(=O)N2[C@H]1C(=O)O (stereo partly shown)
MIC (Escherichia coli; broth microdilution; BW25113, Mueller-Hinton broth; 18 h, without clavulanic acid): 12.5 µg/mL

O=C1CC(c2ccc(O)cc2)Oc2cc(O)cc([O][Ga+][O]c3cc(O)cc4c3C(=O)CC(c3ccc(O)cc3)O4)c21 (stereo not shown)
number of upregulated genes (Pseudomonas aeruginosa; RNA-seq; PAO1; 4 µM, 4 h): 749

COc1ccc(S(=O)(=O)NCc2c[nH]nc2-c2cccs2)cc1
parasitemia (Plasmodium vivax; reinvasion; 3, human, human red blood cells; 3× EC50, 20 h): 0%

C#CCN1CCc2c([nH]c3ccccc23)C(=C)C1=O
inhibition (Hepatitis B virus; viral replication, inhibitor, qPCR; HePAD38; 5 µM): ~10%

CCCCCCSc1ccc(SCCCCCC)c(O)c(=O)c1O
EC50 (Hepatitis B virus; viral replication, inhibitor; HepDES19): 11 µM

COc1ccc(-c2nc(-c3ccccc3OC)[nH]c2-c2ccc(OC)cc2)cc1
concentration causing uncoupling (Schistosoma mansoni; worm pairs, no eggs): 10 µM

CC[C@H](C)[C@H](NC(=O)[C@H](CCCN)NC(=O)[C@H](CC(N)=O)NC(=O)[C@H](CC(C)C)NC(=O)[C@H](Cc1ccccc1)NC(=O)[C@H](CCCN)NC(=O)[C@H](CCCCNC(=N)N)NC(=O)[C@H](CC(C)C)NC(=O)[C@H](CC(C)C)NC(=O)[C@H](CCCN)NC(=O)[C@H](CCCCNC(=N)N)NC(=O)[C@H](CC(C)C)NC(=O)CNC(C)=O)C(=O)N[C@@H](CCCN)C(=O)N[C@@H](CCCCNC(=N)N)C(N)=O
geometric mean MIC (Gram-positive bacteria): 3.13 µM

CC[C@H](C)[C@H](NC(=O)[C@H](CC(C)C)NC(=O)[C@@H](N)CS)C(=O)N[C@@H](CCC(=O)O)C(=O)N[C@@H](Cc1ccc(O)cc1)C(=O)NCC(=O)NCC(=O)N[C@@H](C)C(=O)N[C@@H](CC(=O)O)C(=O)N[C@@H](Cc1ccc(O)cc1)C(=O)N[C@@H](CCCCN)C(=O)N[C@H](C(=O)N[C@H](C(=O)N[C@@H](CC(N)=O)C(=O)N[C@@H](CC(C)C)C(=O)N[C@@H](CCCCN)C(=O)O)[C@@H](C)CC)[C@@H](C)O
protein phosphorylation (infectious bursal disease virus; western blot, item: phospho-p65; DT40 cells, IBDV-infected; 50 to 100 nM, 12 h; reference: IBDV-infected untreated): decreased

CC(C)C[C@H](NC(=O)OCc1ccccc1)C(=O)N[C@@H](C[C@@H]1CCNC1=O)C(O)S(=O)(=O)[O-].[Na+] (stereo partly shown)
infected cells reduction (Coxsackievirus A10; immunofluorescence; RD; 1.1 µM, 8 h): > 50%

O=[N+]([O-])c1ccc(/C=N/N=C/c2ccccc2)s1
IC50 (Trypanosoma brucei gambiense; parasite growth, CellTiter-Glo; IL1922 bloodstream form; 72 h): 0.34 ± 0.01 µM

Cc1ccc(Sc2cccc(O)c(=O)c2O)cc1
MIC80 (Cryptococcus neoformans; microbial growth, broth dilution; 13 h): 1.7 µM (≈ 0.443 µg/mL)

CC(=O)NC(CC(C)C)C(=O)NC(=O)C(CC(C)C)NC(C=O)CCCN=C(N)N (stereo not shown)
inhibition (Plasmodium vivax; parasite growth; 100 µM, 40 h): 82.6 ± 1.2%

NC(=NO)NCCC[C@H](N)C(=O)O
viability (Schistosoma mansoni; schistosomula; 100 µM, 24 h, 37 °C): no effect

Cc1c(CN(C)C(=O)/C=C/c2cnc3c(c2)CC(N)C(=O)N3)oc2ccccc12 (stereo not shown)
MIC (Acinetobacter baumannii, Klebsiella pneumoniae, Escherichia coli; efficacy model strains): 4 to 8 µg/mL (≈ 10.2 to 20.5 µM)

O=C(CCNC(=O)c1ccsc1)Nc1cccc(Oc2ccc(Cl)cc2)c1
Dane particle HBV DNA (Hepatitis B virus; anti-HBs immunoprecipitation qPCR; HepG2.2.15.7; 10 µM, 48 h; reference: control): 61 ± 14%

O=[N+]([O-])c1ccc(/C=N/N=C/c2ccc(OCc3ccccc3)cc2)s1
IC50 (Trypanosoma brucei gambiense; parasite growth, CellTiter-Glo; IL1922 bloodstream form; 72 h): 4.6 ± 0.73 µM

CC[C@H](C)[C@H](NC(=O)[C@H](CCCCN)NC(=O)[C@H](CC(N)=O)NC(=O)[C@H](CC(C)C)NC(=O)[C@H](Cc1ccccc1)NC(=O)[C@H](CCCCN)NC(=O)[C@H](CCCCNC(=N)N)NC(=O)[C@H](CC(C)C)NC(=O)[C@H](CC(C)C)NC(=O)[C@H](CCCCN)NC(=O)[C@H](CCCCNC(=N)N)NC(=O)[C@H](CC(C)C)NC(=O)CNC(C)=O)C(=O)N[C@@H](CCCCN)C(=O)N[C@@H](CCCCNC(=N)N)C(N)=O
geometric mean MIC (Gram-positive bacteria): 3.13 µM

CC(=O)Nc1cccc(CNC(=O)c2cnc3ccccc3c2C(F)(F)F)c1
effective concentration (Drosophila melanogaster; larval locomotor rescue; APP Alzheimer model third-instar larvae; oral in food, dose not given): ≥ 1 µM

CN(Cc1cc(C2CC2)on1)C(=O)c1cccc(-c2ccc3c(c2)CCO3)c1
FIC index (Cryptococcus neoformans; H99; together with: amphotericin B): 2

Cc1ncc([N+](=O)[O-])n1CCOCc1nnc(SCC(=O)c2ccc([N+](=O)[O-])cc2)o1
inhibition zone diameter (viridans streptococci; DMSO; 60 µg/mL, 24 h, 37 °C): ≥ 20 mm
